{"data": "Measured values gathered from unrelated publications", "note": "Each numbered part is a random draw from the data of one study; scales do not carry over between parts. “And” joins repeats or separate records; there may be more than shown.", "sequence of UniProt Q6ZWH5 (whole entry, looked up)": "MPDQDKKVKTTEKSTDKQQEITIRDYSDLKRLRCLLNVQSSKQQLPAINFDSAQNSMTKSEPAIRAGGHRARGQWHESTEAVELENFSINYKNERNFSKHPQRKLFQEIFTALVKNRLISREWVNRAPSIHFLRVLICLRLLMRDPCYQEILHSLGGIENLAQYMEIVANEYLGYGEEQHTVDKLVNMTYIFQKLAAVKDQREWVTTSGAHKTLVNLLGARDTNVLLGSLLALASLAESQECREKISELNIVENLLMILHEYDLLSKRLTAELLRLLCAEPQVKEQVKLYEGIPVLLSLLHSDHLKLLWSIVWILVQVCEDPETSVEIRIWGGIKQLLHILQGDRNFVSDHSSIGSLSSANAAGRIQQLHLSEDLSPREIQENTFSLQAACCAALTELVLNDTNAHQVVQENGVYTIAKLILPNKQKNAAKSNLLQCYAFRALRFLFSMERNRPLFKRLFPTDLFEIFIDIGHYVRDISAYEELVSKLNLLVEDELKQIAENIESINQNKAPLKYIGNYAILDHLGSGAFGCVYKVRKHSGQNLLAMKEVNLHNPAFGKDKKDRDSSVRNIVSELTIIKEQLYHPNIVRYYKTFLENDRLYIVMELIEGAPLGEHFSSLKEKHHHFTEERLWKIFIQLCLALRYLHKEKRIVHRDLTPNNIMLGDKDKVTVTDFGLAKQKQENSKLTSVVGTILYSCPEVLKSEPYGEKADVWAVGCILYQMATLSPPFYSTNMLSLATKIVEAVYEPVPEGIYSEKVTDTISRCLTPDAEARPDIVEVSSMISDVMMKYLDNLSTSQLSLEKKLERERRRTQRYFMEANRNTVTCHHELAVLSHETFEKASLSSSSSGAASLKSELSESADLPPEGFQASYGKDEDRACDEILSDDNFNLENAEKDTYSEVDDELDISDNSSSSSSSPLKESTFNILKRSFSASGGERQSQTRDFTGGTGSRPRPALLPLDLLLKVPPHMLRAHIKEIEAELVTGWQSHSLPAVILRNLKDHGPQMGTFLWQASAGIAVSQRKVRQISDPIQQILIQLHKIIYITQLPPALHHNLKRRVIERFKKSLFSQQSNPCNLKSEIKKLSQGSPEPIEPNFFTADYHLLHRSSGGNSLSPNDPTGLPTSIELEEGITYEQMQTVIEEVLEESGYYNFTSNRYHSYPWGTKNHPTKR", "sequence of UniProt P53779 (whole entry, looked up)": "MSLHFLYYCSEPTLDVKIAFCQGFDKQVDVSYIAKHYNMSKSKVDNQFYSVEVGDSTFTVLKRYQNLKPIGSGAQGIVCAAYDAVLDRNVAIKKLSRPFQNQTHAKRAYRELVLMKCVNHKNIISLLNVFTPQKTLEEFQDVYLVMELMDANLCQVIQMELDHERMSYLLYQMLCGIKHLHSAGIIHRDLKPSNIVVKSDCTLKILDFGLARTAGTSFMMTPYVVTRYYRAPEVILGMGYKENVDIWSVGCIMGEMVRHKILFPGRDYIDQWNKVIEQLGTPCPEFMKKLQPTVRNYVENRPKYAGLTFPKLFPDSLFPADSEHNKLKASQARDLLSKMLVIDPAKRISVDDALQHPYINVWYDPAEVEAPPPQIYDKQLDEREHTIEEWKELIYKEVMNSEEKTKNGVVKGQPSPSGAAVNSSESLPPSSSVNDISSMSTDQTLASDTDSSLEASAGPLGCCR", "sequence of UniProt O14965 (whole entry, looked up)": "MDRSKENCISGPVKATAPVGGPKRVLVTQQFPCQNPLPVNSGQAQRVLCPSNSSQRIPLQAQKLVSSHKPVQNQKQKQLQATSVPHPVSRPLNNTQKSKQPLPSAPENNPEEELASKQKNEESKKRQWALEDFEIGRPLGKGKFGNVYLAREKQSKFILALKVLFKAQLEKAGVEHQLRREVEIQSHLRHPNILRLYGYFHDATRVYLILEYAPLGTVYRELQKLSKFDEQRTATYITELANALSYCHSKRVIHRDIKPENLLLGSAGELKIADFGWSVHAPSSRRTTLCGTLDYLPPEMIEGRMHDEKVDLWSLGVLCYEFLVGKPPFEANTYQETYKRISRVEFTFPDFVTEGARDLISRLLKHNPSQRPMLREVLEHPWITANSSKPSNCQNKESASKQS", "sequence of UniProt P10721 (whole entry, looked up)": "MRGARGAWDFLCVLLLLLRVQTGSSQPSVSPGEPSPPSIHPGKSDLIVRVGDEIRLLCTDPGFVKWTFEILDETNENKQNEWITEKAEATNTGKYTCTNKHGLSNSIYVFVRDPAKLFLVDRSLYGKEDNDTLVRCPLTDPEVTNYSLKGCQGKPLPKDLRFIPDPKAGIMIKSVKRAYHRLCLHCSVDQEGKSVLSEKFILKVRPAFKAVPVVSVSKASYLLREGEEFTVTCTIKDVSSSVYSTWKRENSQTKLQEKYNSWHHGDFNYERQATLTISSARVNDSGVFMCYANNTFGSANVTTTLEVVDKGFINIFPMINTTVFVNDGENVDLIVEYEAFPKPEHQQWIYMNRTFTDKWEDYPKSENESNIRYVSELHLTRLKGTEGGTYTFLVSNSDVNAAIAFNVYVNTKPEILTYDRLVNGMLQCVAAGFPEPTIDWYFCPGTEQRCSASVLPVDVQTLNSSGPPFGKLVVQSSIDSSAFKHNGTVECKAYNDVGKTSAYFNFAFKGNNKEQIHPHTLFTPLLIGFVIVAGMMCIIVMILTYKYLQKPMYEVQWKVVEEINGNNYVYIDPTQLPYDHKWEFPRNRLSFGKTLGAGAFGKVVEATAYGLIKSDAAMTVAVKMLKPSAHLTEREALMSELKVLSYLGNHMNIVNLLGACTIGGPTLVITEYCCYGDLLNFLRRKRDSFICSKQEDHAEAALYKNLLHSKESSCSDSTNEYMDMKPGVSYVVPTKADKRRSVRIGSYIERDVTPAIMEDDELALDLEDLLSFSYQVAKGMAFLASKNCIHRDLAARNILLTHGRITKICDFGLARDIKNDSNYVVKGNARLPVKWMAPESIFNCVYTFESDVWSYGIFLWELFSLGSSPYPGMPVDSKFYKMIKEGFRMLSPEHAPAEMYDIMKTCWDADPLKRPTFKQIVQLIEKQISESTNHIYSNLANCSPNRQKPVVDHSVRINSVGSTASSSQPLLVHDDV", "sequence of UniProt Q15208 (whole entry, looked up)": "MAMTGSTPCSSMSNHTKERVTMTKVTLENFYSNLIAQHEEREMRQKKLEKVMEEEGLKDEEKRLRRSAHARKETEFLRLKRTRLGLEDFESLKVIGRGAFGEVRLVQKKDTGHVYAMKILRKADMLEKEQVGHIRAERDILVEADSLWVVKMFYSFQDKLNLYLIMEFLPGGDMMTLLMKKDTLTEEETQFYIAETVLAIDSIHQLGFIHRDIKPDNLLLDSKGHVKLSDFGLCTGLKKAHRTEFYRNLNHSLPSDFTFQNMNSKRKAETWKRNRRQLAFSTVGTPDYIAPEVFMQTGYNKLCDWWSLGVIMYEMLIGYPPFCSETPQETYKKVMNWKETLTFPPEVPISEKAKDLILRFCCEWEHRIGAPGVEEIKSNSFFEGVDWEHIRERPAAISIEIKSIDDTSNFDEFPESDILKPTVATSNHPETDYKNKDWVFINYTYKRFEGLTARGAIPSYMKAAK", "sequence of UniProt P0C264 (whole entry, looked up)": "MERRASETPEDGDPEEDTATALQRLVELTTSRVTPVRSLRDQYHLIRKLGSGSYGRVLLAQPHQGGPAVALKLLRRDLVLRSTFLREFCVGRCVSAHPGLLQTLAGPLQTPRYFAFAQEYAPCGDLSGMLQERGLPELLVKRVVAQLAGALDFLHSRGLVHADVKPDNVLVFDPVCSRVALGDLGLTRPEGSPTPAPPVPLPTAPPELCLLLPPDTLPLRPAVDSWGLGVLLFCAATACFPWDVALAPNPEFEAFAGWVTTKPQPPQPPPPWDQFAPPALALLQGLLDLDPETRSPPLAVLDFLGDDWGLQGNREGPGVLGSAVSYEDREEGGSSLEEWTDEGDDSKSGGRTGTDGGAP"}
{"data": "Sample 1", "SMILES": "COc1cc2ncc(-c3ccccc3)nc2cc1OC", "effect on": "enzyme activity", "mode": "inhibitor", "concentration": "0.5 µM", "baseline": "control"}
{"target": "Mitogen-activated protein kinase 10 (MAPK10, Homo sapiens, UniProt P53779)", "remaining activity": "90.3%"}
{"target": "Serine/threonine-protein kinase BRSK1 (BRSK1, Homo sapiens, UniProt Q8TDC3)", "remaining activity": "102%"}
{"target": "Epidermal growth factor receptor (EGFR, Homo sapiens, UniProt P00533)", "remaining activity": "82.9%"}
{"target": "Serine/threonine-protein kinase D1 (PRKD1, Homo sapiens, UniProt Q15139)", "remaining activity": "93.3%"}
{"target": "Aurora kinase A (AURKA, Homo sapiens, UniProt O14965)", "remaining activity": "90.3%"}
{"target": "Mitogen-activated protein kinase kinase kinase 8 (MAP3K8, Homo sapiens, UniProt P41279)", "remaining activity": "108%"}
{"target": "Cyclin-dependent kinase 7 (CDK7, Homo sapiens, UniProt P50613)", "remaining activity": "109%"}
{"target": "Serine/threonine-protein kinase N2 (PKN2, Homo sapiens, UniProt Q16513)", "remaining activity": "88.3%"}
{"target": "Proto-oncogene tyrosine-protein kinase ROS (ROS1, Homo sapiens, UniProt P08922)", "remaining activity": "100%"}
{"target": "Homeodomain-interacting protein kinase 3 (HIPK3, Homo sapiens, UniProt Q9H422)", "remaining activity": "97.7%"}
{"target": "Myotonin-protein kinase (DMPK, Homo sapiens, UniProt Q09013)", "remaining activity": "103%"}
{"target": "Casein kinase II subunit alpha' (CSNK2A2, Homo sapiens, UniProt P19784)", "remaining activity": "98.3%"}
{"target": "G protein-coupled receptor kinase 5 (GRK5, Homo sapiens, UniProt P34947)", "remaining activity": "106%"}
{"target": "Mitogen-activated protein kinase kinase kinase 2 (MAP3K2, Homo sapiens, UniProt Q9Y2U5)", "remaining activity": "92.5%"}
{"target": "Calcium/calmodulin-dependent protein kinase type 1D (CAMK1D, Homo sapiens, UniProt Q8IU85)", "remaining activity": "96.6%"}
{"target": "Proto-oncogene tyrosine-protein kinase receptor Ret (RET, Homo sapiens, UniProt P07949)", "remaining activity": "84.4%"}
{"target": "STE20-like serine/threonine-protein kinase (SLK, Homo sapiens, UniProt Q9H2G2)", "remaining activity": "97.3%"}
{"target": "Dual specificity tyrosine-phosphorylation-regulated kinase 4 (DYRK4, Homo sapiens, UniProt Q9NR20)", "remaining activity": "112%"}
{"target": "Rho-associated protein kinase 2 (ROCK2, Homo sapiens, UniProt O75116)", "remaining activity": "96.1%"}
{"target": "Serine/threonine-protein kinase Nek9 (NEK9, Homo sapiens, UniProt Q8TD19)", "remaining activity": "93.5%"}
{"target": "Protein-tyrosine kinase 2-beta (PTK2B, Homo sapiens, UniProt Q14289)", "remaining activity": "85.9%"}
{"target": "Cyclin-dependent kinase 2, with cyclin A (CDK2, Homo sapiens, UniProt P24941)", "remaining activity": "92.9%"}
{"target": "NT-3 growth factor receptor (NTRK3, Homo sapiens, UniProt Q16288)", "remaining activity": "89.1%"}
{"target": "Calcium/calmodulin-dependent protein kinase type 1G (CAMK1G, Homo sapiens, UniProt Q96NX5)", "remaining activity": "95.1%"}
{"data": "Sample 2", "organism": "Sarcocystis neurona", "effect on": "parasite growth", "concentration": "10 µM", "baseline": "untreated"}
{"SMILES": "CC(C)[N+]1(C)[C@@H]2CC[C@H]1CC(OC(=O)C(CO)c1ccccc1)C2.[Br-] (some centres unmarked)", "log2 fold change": 0.3}
{"SMILES": "CC(C)(C)NCC(O)c1ccc(O)c(CO)c1.CC(C)(C)NCC(O)c1ccc(O)c(CO)c1.O=S(=O)(O)O (centres unmarked)", "log2 fold change": 0.26}
{"SMILES": "CC1(C)C[C@@H]1C(=O)N/C(=C\\CCCCSC[C@H](N)C(=O)O)C(=O)[O-].[Na+]", "log2 fold change": 0.35}
{"SMILES": "CC(COc1ccccc1Cc1ccccc1)N1CCCCC1.O=P(O)(O)O (centres unmarked)", "log2 fold change": -0.13}
{"SMILES": "Cc1nccn1CC1CCc2c(c3ccccc3n2C)C1=O.Cl (centres unmarked)", "log2 fold change": 0.26}
{"SMILES": "O=C1c2c(O)ccc(O)c2C(=O)c2c(NCCNCCO)ccc(NCCNCCO)c21", "log2 fold change": -1.43}
{"SMILES": "C[C@H]1C[C@H]2[C@@H]3CCC4=CC(=O)C=C[C@]4(C)[C@@]3(Cl)[C@@H](O)C[C@]2(C)[C@@]1(O)C(=O)CO", "log2 fold change": -0.05}
{"SMILES": "Nc1ncn([C@@H]2O[C@H](CO)[C@@H](O)[C@H]2O)c(=O)n1", "log2 fold change": 0.33}
{"SMILES": "Cc1onc(-c2ccccc2)c1C(=O)N[C@@H]1C(=O)N2[C@@H]1SC(C)(C)[C@@H]2C(=O)O", "log2 fold change": 0.3}
{"data": "Sample 3", "SMILES": "CC(=O)N1CCC(c2ccc(C(=O)NC(=N)N)cc2C(F)(F)F)CC1", "effect on": "cell-free assay", "method": "competition with immobilised ligand", "concentration": "1 µM"}
{"target": "Tyrosine-protein kinase ABL1, phosphorylated (ABL1, Homo sapiens, UniProt P00519, M351T)", "remaining binding [%]": 100}
{"target": "Serine/threonine-protein kinase PAK 2 (PAK2, Homo sapiens, UniProt Q13177)", "remaining binding [%]": 100}
{"target": "Mast/stem cell growth factor receptor Kit (KIT, Homo sapiens, UniProt P10721)", "remaining binding [%]": 95}
{"target": "Receptor-interacting serine/threonine-protein kinase 1 (RIPK1, Homo sapiens, UniProt Q13546)", "remaining binding [%]": 100}
{"target": "Uncharacterized serine/threonine-protein kinase SBK3 (SBK3, Homo sapiens, UniProt P0C264)", "remaining binding [%]": 100}
{"target": "Ephrin type-B receptor 1 (EPHB1, Homo sapiens, UniProt P54762)", "remaining binding [%]": 100}
{"target": "SRSF protein kinase 2 (SRPK2, Homo sapiens, UniProt P78362)", "remaining binding [%]": 0}
{"target": "Tyrosine-protein kinase ABL1, non-phosphorylated (ABL1, Homo sapiens, UniProt P00519)", "remaining binding [%]": 93}
{"target": "cGMP-dependent protein kinase 1 (PRKG1, Homo sapiens, UniProt Q13976)", "remaining binding [%]": 100}
{"target": "Serine/threonine-protein kinase Sgk3 (SGK3, Homo sapiens, UniProt Q96BR1)", "remaining binding [%]": 100}
{"target": "Phosphatidylinositol 4,5-bisphosphate 3-kinase catalytic subunit delta isoform (PIK3CD, Homo sapiens, UniProt O00329)", "remaining binding [%]": 34}
{"target": "Epithelial discoidin domain-containing receptor 1 (DDR1, Homo sapiens, UniProt Q08345)", "remaining binding [%]": 83}
{"target": "Serine/threonine-protein kinase 38 (STK38, Homo sapiens, UniProt Q15208)", "remaining binding [%]": 96}
{"target": "Ribosomal protein S6 kinase alpha-3, N-terminal kinase domain (RPS6KA3, Homo sapiens, UniProt P51812)", "remaining binding [%]": 95}
{"target": "Phosphatidylinositol 4-phosphate 3-kinase C2 domain-containing subunit beta (PIK3C2B, Homo sapiens, UniProt O00750)", "remaining binding [%]": 95}
{"target": "Serine/threonine-protein kinase Nek10 (NEK10, Homo sapiens, UniProt Q6ZWH5)", "remaining binding [%]": 92}
{"data": "Sample 4", "SMILES": "CN1CCC[C@H]1COc1nc2c(c(N3CCN(S(C)(=O)=O)[C@@H](CC#N)C3)n1)CCN(c1cccc3cccc(Cl)c13)C2", "effect on": "binding", "mode": "competitor", "method": "NanoBRET", "cell line": "HEK293", "KRAS G13D": "GTPase KRas (KRAS, Homo sapiens, UniProt P01116, G13D)"}
{"target": "KRAS G13D", "conditions": "11.1 µM", "normalized BRET": "10.5% and 10.6% and 7.79%"}
{"target": "GTPase KRas (KRAS, Homo sapiens, UniProt P01116, Q61L)", "conditions": "15.2 nM", "normalized BRET": "101% and 93.4% and 98.1%"}
{"target": "GTPase KRas (KRAS, Homo sapiens, UniProt P01116, Q61H)", "conditions": "3.7 µM", "normalized BRET": "20.4% and 26.9% and 25.2%"}
{"target": "KRAS G13D", "conditions": "3.7 µM", "normalized BRET": "19.2% and 17.2%"}
{"note": "A few entries again (sample 1):"}
{"target": "Myotonin-protein kinase (DMPK, Homo sapiens, UniProt Q09013)", "remaining activity": "103%"}
{"target": "Mitogen-activated protein kinase kinase kinase 8 (MAP3K8, Homo sapiens, UniProt P41279)", "remaining activity": "108%"}
{"target": "Aurora kinase A (AURKA, Homo sapiens, UniProt O14965)", "remaining activity": "90.3%"}
{"target": "Proto-oncogene tyrosine-protein kinase receptor Ret (RET, Homo sapiens, UniProt P07949)", "remaining activity": "84.4%"}
{"target": "Serine/threonine-protein kinase Nek9 (NEK9, Homo sapiens, UniProt Q8TD19)", "remaining activity": "93.5%"}
